Assay results pooled from the literature.
Compare with care: the assays were run in different laboratories.
OPRM1: Mu-type opioid receptor (OPRM1, Homo sapiens, UniProt P35372)
Sequence of UniProt P35372 (whole entry, looked up): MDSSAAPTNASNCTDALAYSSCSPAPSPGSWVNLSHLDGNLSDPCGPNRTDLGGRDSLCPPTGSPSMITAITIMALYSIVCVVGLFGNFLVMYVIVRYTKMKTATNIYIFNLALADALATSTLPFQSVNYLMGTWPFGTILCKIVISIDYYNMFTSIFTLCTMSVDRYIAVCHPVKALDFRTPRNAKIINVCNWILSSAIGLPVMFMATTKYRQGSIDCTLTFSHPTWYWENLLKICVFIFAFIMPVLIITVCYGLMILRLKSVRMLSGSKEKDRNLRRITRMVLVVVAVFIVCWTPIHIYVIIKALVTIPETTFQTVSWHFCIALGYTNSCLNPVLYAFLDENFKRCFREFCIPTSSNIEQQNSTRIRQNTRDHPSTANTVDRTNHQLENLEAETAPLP
Sequence of UniProt P78356 (whole entry, looked up): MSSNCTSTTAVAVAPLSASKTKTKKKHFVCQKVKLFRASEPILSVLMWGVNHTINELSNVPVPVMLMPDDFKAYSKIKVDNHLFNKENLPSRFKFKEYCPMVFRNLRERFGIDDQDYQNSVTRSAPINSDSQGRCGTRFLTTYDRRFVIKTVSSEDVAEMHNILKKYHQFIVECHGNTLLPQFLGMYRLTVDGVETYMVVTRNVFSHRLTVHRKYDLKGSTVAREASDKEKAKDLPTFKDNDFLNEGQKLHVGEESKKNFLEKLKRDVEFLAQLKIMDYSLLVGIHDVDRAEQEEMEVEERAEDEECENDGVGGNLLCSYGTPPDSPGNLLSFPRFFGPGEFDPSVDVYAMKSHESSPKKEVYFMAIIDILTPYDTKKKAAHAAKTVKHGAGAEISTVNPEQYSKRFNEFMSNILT
Sequence of UniProt Q8IW41 (whole entry, looked up): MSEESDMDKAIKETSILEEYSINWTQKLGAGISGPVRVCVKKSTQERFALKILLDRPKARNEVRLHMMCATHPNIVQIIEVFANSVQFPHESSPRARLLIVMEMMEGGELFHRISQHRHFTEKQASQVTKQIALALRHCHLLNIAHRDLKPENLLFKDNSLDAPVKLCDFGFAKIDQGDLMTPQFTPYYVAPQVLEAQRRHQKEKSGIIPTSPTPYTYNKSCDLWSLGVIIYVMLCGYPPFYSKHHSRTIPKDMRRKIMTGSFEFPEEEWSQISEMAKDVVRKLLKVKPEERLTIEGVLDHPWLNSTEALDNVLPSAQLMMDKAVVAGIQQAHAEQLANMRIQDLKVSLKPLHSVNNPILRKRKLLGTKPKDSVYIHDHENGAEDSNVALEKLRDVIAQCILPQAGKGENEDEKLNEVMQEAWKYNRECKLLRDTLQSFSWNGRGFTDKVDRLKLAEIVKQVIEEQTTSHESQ
Sequence of UniProt Q05655 (whole entry, looked up): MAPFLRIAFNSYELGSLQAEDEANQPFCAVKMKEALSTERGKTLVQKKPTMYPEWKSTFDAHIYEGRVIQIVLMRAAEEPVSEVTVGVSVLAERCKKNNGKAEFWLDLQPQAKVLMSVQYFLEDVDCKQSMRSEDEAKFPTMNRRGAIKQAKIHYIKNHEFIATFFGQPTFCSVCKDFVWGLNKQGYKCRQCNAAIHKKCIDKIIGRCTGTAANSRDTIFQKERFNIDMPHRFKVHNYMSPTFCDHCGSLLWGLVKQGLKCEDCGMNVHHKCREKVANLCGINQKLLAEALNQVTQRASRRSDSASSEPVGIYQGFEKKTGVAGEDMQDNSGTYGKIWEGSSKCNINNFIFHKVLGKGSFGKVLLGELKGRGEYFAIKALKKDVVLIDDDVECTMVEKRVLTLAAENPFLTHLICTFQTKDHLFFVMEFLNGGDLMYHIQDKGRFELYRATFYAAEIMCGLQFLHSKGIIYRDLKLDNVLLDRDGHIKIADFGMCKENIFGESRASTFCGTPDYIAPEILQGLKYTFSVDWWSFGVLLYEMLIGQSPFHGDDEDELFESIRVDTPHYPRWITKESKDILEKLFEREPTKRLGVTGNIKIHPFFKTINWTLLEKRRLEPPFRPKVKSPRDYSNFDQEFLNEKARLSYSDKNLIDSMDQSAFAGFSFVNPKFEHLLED
Sequence of UniProt P35368 (whole entry, looked up): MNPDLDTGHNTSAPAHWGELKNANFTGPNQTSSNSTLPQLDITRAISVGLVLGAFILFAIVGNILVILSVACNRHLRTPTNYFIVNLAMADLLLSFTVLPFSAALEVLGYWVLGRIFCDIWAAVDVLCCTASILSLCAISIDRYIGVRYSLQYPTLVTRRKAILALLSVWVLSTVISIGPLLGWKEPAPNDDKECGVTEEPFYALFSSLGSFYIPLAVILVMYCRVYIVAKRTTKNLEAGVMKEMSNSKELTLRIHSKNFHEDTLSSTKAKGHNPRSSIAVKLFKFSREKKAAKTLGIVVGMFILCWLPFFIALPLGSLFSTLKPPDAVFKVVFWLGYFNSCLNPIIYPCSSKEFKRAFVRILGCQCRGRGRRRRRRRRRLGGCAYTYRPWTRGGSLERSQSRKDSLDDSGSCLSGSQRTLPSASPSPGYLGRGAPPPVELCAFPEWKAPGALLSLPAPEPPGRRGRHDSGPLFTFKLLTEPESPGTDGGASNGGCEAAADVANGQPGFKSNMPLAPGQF
Sequence of UniProt Q00536 (whole entry, looked up): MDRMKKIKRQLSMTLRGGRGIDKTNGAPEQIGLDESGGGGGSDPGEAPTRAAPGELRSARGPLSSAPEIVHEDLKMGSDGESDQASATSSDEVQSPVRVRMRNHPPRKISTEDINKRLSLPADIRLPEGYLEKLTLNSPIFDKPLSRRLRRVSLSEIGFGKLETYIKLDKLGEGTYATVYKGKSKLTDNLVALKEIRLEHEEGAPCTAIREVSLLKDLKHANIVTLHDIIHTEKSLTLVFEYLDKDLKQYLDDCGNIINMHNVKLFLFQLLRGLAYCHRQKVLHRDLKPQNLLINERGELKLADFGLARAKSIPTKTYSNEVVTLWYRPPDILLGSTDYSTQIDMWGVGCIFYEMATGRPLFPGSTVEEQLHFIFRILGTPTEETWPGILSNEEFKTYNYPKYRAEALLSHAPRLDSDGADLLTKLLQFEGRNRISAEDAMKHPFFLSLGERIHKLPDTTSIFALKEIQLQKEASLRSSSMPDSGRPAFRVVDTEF
Sequence of UniProt O60741 (whole entry, looked up): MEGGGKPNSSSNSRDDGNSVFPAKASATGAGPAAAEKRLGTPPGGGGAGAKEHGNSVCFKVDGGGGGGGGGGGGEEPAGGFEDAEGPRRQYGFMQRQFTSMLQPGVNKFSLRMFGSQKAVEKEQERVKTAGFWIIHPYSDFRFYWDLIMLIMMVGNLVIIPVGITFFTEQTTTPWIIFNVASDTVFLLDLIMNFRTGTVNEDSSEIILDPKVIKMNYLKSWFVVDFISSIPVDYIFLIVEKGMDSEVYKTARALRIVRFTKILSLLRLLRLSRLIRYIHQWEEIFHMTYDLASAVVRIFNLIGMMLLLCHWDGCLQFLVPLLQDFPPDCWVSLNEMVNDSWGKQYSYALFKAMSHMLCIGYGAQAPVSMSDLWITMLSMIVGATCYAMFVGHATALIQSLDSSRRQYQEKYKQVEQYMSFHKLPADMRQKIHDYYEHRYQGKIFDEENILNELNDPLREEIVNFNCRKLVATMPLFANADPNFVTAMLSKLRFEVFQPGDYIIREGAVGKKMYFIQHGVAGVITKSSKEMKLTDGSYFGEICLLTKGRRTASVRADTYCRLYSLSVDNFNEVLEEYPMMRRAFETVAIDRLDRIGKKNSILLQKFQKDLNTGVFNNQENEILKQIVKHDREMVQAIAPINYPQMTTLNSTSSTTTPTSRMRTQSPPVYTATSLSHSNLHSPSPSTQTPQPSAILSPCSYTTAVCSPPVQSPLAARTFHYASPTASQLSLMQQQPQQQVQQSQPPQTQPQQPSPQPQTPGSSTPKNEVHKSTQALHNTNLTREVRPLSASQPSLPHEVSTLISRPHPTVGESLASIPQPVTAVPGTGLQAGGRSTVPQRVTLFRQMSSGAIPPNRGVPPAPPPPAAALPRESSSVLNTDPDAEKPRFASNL

CC(C)CC(=O)OC[C@H]1O[C@@](C#N)(c2ccc3c(N)ncnn23)[C@H](O)[C@@H]1O — inhibition (ADRA1B (Homo sapiens, UniProt P35368); cell-free assay; 20 µM): 7%
CC12CC3CC(C)(C1)CC(N)(C3)C2 — inhibition (Potassium/sodium hyperpolarization-activated cyclic nucleotide-gated channel 1 (Homo sapiens, UniProt O60741); ion current, inhibitor; 3 µM): 0.998%
Nc1ncc(-c2nc(N3CCOCC3)nc(N3CCOCC3)n2)c(C(F)F)n1 — remaining binding (CDK16 (Homo sapiens, UniProt Q00536); binding, competition with immobilised ligand; 10 µM): 90%
Cc1nn(C)cc1-c1nc2c(N3CCN(Cc4ccc(Cl)cc4)CC3)c(Cl)cnc2[nH]1 — remaining binding (Myosin-IIIa (MYO3A, Homo sapiens, UniProt Q8NEV4); binding, competition with immobilised ligand; 1 µM): 100%
Oc1cccc(N2[C@@H]3CC[C@H]2CNC3)c1 — Emax (OPRM1; cAMP, agonist; OPRM1): 105%
COc1ncccc1-c1cnn2ccc(N3CCN(C(=O)OC(C)C)CC3)nc12 — remaining binding (PIP4K2B (Homo sapiens, UniProt P78356); binding, competition with immobilised ligand; 1 µM): 71%
[2H]c1c([2H])c([C@]2([2H])CCCN2C(=O)C(C)(C)Oc2ccc3cn[nH]c3c2)c([2H])c([2H])c1C([2H])([2H])[2H] — remaining binding (PRKCD (Homo sapiens, UniProt Q05655); binding, competition with immobilised ligand; 1 µM): 79%
C#Cc1n[nH]c2c(-c3cn([C@@H](C)c4ccccn4)c(=O)[nH]c3=O)cc(F)cc12 — inhibition (MAPKAPK5 (Homo sapiens, UniProt Q8IW41); enzyme activity, inhibitor; 0.1 µM): 3%
CN1CCC[C@H]1c1cccnc1 — inhibition (OPRM1; ligand displacement; 50 µM): 19.5%

Some of these lines once more:
C#Cc1n[nH]c2c(-c3cn([C@@H](C)c4ccccn4)c(=O)[nH]c3=O)cc(F)cc12 — inhibition (MAPKAPK5 (Homo sapiens, UniProt Q8IW41); enzyme activity, inhibitor; 0.1 µM): 3%
